Assay results from different studies.
Parts stem from different laboratories: compare values within a part only.

Set 1
Target: Histone acetyltransferase KAT6A, winged helix 1, GST fusion (KAT6A, Homo sapiens, UniProt Q92794, residues 1-85)
Method: protein binding microarray
Molecule type: double-stranded DNA, one strand shown
Medium: in vitro
Concentration: not given
Setting: 8-mer, flanks averaged, mean of 2 arrays, mostly near background
Relative to: not given
Direction: higher = stronger binding
Construct (chain): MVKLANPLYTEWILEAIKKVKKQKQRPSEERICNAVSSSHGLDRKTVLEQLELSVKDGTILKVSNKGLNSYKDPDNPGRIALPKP
Oligonucleotide | E-score
AGATTCGG | -0.11
TATCACCA | -0.0812
TAGTCGGA | 0.0286
AAGCCCGA | 0.105
GGTGGCAC | -0.073
ACTCAGAC | -0.0571
AGATCTAG | -0.174
AGCGGTAC | 0.341
ATCAGTCA | -0.151
ACTCGCCG | 0.303
CAACACGC | -0.0118
ATTTGTTG | -0.216
AAGAAGTA | -0.052
CGAAGCTA | -0.121
CAAGGGTA | -0.205
GACGGAAC | 0.237

Set 2
Target: Centromere-binding protein 1, full length, N-terminal tag (CBF1, Saccharomyces cerevisiae, UniProt P17106, residues 1-351)
Sequence of UniProt P17106 (whole entry, looked up): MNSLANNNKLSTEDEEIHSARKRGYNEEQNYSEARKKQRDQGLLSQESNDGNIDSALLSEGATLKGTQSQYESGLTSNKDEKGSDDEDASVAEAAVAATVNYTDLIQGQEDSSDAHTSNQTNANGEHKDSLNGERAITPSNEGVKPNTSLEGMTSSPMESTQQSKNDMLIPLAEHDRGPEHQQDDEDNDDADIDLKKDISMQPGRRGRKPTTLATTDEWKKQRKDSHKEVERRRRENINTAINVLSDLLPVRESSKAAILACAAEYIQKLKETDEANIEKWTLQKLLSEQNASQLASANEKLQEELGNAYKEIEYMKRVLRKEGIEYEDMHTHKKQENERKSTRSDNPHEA
Method: protein-binding microarray
Molecule type: double-stranded DNA, one strand shown
Medium: in vitro
Concentration: 0.8 µM
Setting: whole 60-bp probe, no competitor
Direction: higher = stronger binding
Oligonucleotide | fluorescence intensity
GAAGATATGAAACTACACGTTCAGTCATATGAATAGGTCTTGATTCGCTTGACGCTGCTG | 581 a.u.
CTACTGGATATTCACCACACCTGATTGGGAAGATTCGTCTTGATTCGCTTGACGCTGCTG | 748 a.u.
GAAGTGTTATTGTCACCGCTGATGGTTGTGATGTAGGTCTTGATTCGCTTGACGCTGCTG | 544 a.u.
CTAGTAAATAACACACACGTGCTTACCCTACCATTCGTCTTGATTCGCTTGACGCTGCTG | 6640 a.u.
GAACATGCTGAAGGGAACGTGCGAGAAAAAAATTAGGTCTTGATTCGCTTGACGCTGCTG | 687 a.u.
GAACCTGCATGAAGGCACGCTCTAATATATATGTAGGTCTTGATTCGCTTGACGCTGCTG | 574 a.u.
GAAACGTAGAAACGACATCAGTCGCTTTCGCTTTAGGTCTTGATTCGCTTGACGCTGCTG | 485 a.u.
CTATATGCTTGCCCTTACATCAGAATTACCAAGTTCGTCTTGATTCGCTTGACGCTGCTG | 552 a.u.
GAAGATTGCTCGAATCACGTTTTTCTTGTTTTTTAGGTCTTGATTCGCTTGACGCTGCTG | 1860 a.u.
CTAAACTCTCGCAGTTGTCACGTGCAATTTGATTTCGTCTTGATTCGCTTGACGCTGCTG | 14800 a.u.
GAATGCGTGGTTCGTCACCTTAGGATAATATCGTAGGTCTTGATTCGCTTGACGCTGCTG | 540 a.u.
GAATCCGTTGAAAATAGCGTGGTGAATGGTAAATAGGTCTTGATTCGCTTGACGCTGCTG | 553 a.u.
CTAGCACCTTGTCGTCATGAGACCCATTTCGTATTCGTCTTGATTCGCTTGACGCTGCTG | 699 a.u.
GAATCTTCTTTTTAGCATGTGCTGTAATTTGGCTAGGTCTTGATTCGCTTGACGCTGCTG | 929 a.u.
GAATAATAGCGTCGTTACGTCACATATGGTCAGTAGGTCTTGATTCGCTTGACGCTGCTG | 580 a.u.
GAATCAATAACGCACATGGTGGTGTACGGGTGTTAGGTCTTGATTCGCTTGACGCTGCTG | 661 a.u.
CTATTTGCTTTCCCCCACCAGACATATATAAAGTTCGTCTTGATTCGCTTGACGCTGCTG | 605 a.u.
GAAATATGTAGTAATCACGTATGCAGACATTAATAGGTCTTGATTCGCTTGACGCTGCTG | 613 a.u.
CTAAAAGCTTGATGACATGTGATAGCACACCATTTCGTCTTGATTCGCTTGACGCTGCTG | 1570 a.u.
CTACTGGTCCAAGAAGACGTGATTTACAAGACATTCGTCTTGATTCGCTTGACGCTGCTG | 619 a.u.
CTATTCTTTTAGTAAACCGTCACGTGCAAGAGATTCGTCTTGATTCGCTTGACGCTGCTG | 17800 a.u.
CTAACACATCCCTAAACGAAGCCGCACAATCTTTTCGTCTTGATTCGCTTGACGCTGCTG | 526 a.u.
CTATGGTACTACTGTCCTGATGTAGGCTCCTTATTCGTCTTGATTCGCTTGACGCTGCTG | 508 a.u.
GAAGATACTAATGTAGACGTGGTGTTACTACAATAGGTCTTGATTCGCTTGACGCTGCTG | 529 a.u.

Set 3
Target: RNA binding protein fox-1 homolog 2, RRM domain, GST-SBP tag (RBFOX2, Homo sapiens, UniProt O43251-10, residues 100-194)
Method: RNA Bind-n-Seq
Molecule type: RNA
Medium: in vitro
Concentration: 365 nM
Setting: natural RNA segment, single round, ends assumed
Relative to: no-protein control
Direction: higher = stronger binding
Target sequence (chain): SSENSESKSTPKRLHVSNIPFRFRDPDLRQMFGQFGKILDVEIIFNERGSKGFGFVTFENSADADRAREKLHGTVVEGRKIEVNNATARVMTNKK
Oligonucleotide | RBNS enrichment (R)
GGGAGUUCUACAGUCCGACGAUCUGCCUUGAACUUAUUAACAUGGCCAUUAUAAGAAUAAAAUAUGUAGUUGUGUCUUAAUGGAAUUAAUAAAUGUCAUUUCACUACUGGUGUUCUGUUUCAAUGUAUAAGGAUGGAAUUCUCGGGUGCCAA | 0.468
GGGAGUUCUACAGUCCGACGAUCCACAUGUGCAUGCCUGUUUCUUUUUGCCAGGGAGACAACUGAAUUUGGGGCAUUUUUCUACAAACACAGCCUCCUCUCCCCCUGUAUGGACUGGCUAUAACCAUAAGCCAUGGAAUUCUCGGGUGCCAA | 5.67
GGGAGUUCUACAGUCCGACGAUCAUUAUUUCUUAACUGACUAGAAAGAGCCACCAGCAUUACUCUGUGCCUUUUGGACUUGAGUUUGUAUGUUCUGUAGGAACUACAUGCAUUCCUUUCACACAGUAUUUCAGUGGAAUUCUCGGGUGCCAA | 0.532
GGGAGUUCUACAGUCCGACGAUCGUUUUGUCAUAUAAAAAGUUUAUAAAUGUUUGCUAUCAGACUGACAUUAAAUAGAAGCUAUGAUGAACACCUGGCGGGGUUUGUUCUCUCUCCAAUGCUCCGAGUCCACUUGGAAUUCUCGGGUGCCAA | 0.199
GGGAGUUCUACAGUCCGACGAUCAGGCUGGUGGCAUGGCCCCCCUGCCCCGUGCUGAAUGAAUGUACAGAGCCAGACAAAGCUGUGAAUGGCCUAGGGGCUGAGUCCCACACCAGCUGUGAAUUCUCCUGCAGUGGAAUUCUCGGGUGCCAA | 1.82
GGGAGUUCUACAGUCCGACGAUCAUUUAAUAAGCAAUCCGGAUCUCAGAGAACAUAGUAAUACUGUCUAGUUUAAAGCCUGCAGUAAAGGUACUCAGAUUUAUGGCUUUCAUGACUAACACUAAACACAUCAGUGGAAUUCUCGGGUGCCAA | 0.545
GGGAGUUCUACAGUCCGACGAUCGCCCCAGGGCAUCUGCCAACUCCAGUAUCAGCUCUCACAGUGUACUUGGUACCAUCCCUGGGCUCUGCUGGCGAGACGAAACAGCUGUAGAGAUGAAAACAGGCUGCAGAUGGAAUUCUCGGGUGCCAA | 0.304
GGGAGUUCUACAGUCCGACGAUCAACAAAAACAAGUCCCAUGUCCUACUGACUCUAGUUCUUCCAGUCGUUAUCCUCUGCUGUCUCUCUGGCAUCCUAUGAAUCAGAUCAAGCCCAUGCUGUUGUUGGUUUUUUGGAAUUCUCGGGUGCCAA | 0.754
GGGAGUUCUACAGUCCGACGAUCACACGUGUUUUUACUGACUGAAGCCAACCAUCCUGAACUGUCAUGCAGAGAAUUCUUGCAGGAAUCAAUAAGGACGUGUCUCUAAUCACGUGUGCGAACUGAAAUGUCAUUGGAAUUCUCGGGUGCCAA | 0.452
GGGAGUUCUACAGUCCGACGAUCCCGAGAGUCUGGAGUUAGCCCAGUGUUAGGGUAGGAAGGUAGUGGCAGCUUUCCAAAGGGCCUAAAACACCAGGACUGCCUCUGUGAAAGGCCCGAGUGGCUUUGAUGCAUGGAAUUCUCGGGUGCCAA | 3.2
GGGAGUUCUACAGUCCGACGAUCCCUUGUCAUAGACCUUAUUAGGGUUUGGGGUUUUGUUCCUUCGUUGUUUUCCUCUCACUAUUUAAAGUUGACUAGAAGAGAAGAGUUGUGUGUUGAGGCUAAGUUGGUGGUGGAAUUCUCGGGUGCCAA | 0.599
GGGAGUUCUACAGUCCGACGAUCAAAAAGGAGAACUGAAAAUUUAGACAUACAGUUGGCCAUUGUAAAAAACAUCAGUUUCCUCUCAUACAUUCCAAGUAAACCAAGUAAAAUAAGUGUUGGAGUAACACUUGUGGAAUUCUCGGGUGCCAA | 0.563

Set 4
Target: RING finger protein unkempt homolog, zinc fingers 1-6, GST-SBP tag (UNK, Homo sapiens, UniProt Q9C0B0, residues 30-357)
Sequence of UniProt Q9C0B0 (30-357, looked up): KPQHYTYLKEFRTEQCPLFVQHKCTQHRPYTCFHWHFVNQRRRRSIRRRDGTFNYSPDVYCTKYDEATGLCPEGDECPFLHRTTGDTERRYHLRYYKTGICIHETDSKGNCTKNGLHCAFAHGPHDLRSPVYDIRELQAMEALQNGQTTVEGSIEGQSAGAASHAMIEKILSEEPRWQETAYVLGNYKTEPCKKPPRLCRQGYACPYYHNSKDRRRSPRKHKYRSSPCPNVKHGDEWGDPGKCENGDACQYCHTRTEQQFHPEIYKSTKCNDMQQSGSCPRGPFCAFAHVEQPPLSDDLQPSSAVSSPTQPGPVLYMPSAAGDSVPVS
Method: RNA Bind-n-Seq
Molecule type: RNA
Medium: in vitro
Concentration: not given
Setting: RNA with constant flanks, human-mouse chimeric sites, ends assumed
Relative to: input RNA pool
Direction: higher = stronger binding
Oligonucleotide | bound/input enrichment [ratio]
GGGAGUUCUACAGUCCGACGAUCUGGCGCCUCCCAUUUUUACUCGUGUUUUUAAGUGUAUUUUUAUAAGAUACAUGUAUUUACAAUUGAGCUUUUGUUACAUAAUGCUGAAAACAUCUCUGAGAUUAUGAAAAAUGUUUCAAUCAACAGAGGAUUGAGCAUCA | 0.103
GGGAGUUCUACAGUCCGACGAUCGUGACUGGUGUUAAGAUUUCCCCUCAGCAAAGAAGUGCAGUAGUCACCAUAAUUCCAUCUGUGGUGAGUGCCAGUCAGAUAAAAGAGCUGGUCCCAGACCUCAGUUUAGACAUGGGAACUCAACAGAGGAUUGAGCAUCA | 0.273
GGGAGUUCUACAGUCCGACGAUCAAUUUCCUGUCAUACUUUUUAGACAUUGCCAUAGGUAUUACAGAGCACCUGGCCACAUUCUAGGUUUGUGUUAUUUCUAAGCCUUUUAUAUGAUCAAAUGAGAACACUGCUUAACUAAUGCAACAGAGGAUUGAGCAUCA | 0.983
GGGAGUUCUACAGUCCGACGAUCUUGCUACUAACUCCAUGGGUUAAAUUCCUGUGGGAAUCAUACAGGCAGUGUUUGGACCUUCUUCGAAACAAUUCUAGAGUAGAGCGCCUUUACCAUGAUAUCGCCCAACAAGCUUUCAAACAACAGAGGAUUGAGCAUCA | 0.191
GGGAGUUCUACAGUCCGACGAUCUUAAUCCCCUUUACUGCUCCCCCACUUGUCAUGCUGAUAACAAAGUCUUAUAUCCCCGUCCUAGCUUUCACUCAGAUGGCUUAUGGAGCCGGUUUCCUAGCUUUCUUGGGUGGGAUCAGACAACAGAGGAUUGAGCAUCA | 0.335
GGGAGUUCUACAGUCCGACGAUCGCAGGAUCUUCUAAGUACCAGUGGGACAUUAUGAAAUCCCUUGGGCUCUCUGAUGACGACAUAGUGAAGUUUUCUGAAGCAGAACAUUGGCUUGAUUAUUUCCCGCCACUGGCCGUUCAGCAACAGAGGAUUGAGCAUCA | 0.187
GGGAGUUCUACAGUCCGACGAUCCUGGCCUGGCCCUCCCCAGGGGCCUCCUUUCGUAUAGUAACUGUCAGUGCUACGGAUACUUUCAGCUGCAACUCCCUACUGGGUGGGGCACCCAUUUCAGGCAGAAGGUUUUGGUACCCUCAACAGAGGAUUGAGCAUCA | 0.367
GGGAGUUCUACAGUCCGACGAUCUGUGCAUAUGAUGCUUGAGAUGGUUUUUGCAAAAGCAGACAUCGCUGCAAGGUAAUCACAAUAGAUAAAAGUGGUAUUUUAAACCUUUGAAAUAAAUGGAUGUAACUGUACCUUGGUACACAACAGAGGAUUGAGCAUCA | 0.623
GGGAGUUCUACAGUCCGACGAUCCUGGCCUUCUGAGCAUCAGGGGCCUCCUUUCGUAUAGUCACUGCUUCUGCAUCAGAUACUUUCAGCUGCAACUCCCUACUGGGUGGGGCACCCAUUUCAGGCAGAAGGUUUUGGUACCCUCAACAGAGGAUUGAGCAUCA | 0.196
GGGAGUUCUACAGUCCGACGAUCUUUGUAUUUAUGCUAAGCACGCGUGCUGGUGGUCUGGGCAUCAAUCUUGCAACUGCUGAUGUAGUCAUUUUAUAUGACUCAGAUUGGAAUCCCCAAGUUGAUCUUCAGGCUAUGGACCGUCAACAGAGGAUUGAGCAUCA | 0.128
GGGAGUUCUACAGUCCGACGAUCGCUCCUCCCCGCUCUGCAGCCUGGGGACACUGGGCUGGGACCAGAAUCCAGCUUUCUUUUAAUAGUGUCAGUGUAACUGUAUCCCGUGACAUUUCAUUUUUUUUAAAAGAAAAAAACUUUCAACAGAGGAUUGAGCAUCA | 0.56

Repeated from above (set 1):
Oligonucleotide | E-score
AGATCTAG | -0.174
AGCGGTAC | 0.341
ACTCAGAC | -0.0571
CAACACGC | -0.0118
GGTGGCAC | -0.073
AAGAAGTA | -0.052
CGAAGCTA | -0.121
ATTTGTTG | -0.216
AGATTCGG | -0.11
GACGGAAC | 0.237
ACTCGCCG | 0.303
